Results pooled from the literature.
A part holds a random share of what one study measured.

Study 1
Target: Prothrombin, mature alpha-thrombin (F2, Homo sapiens, UniProt P00734)
Method: aptamer microarray, sandwich
Form: DNA with 2'F-ANA
Matrix: in vitro
Concentration: 200 nM
Notes: whole 15-mer aptamer, many near background
Together with: Cy3 exosite-II aptamer, 400 nM
Direction: higher = stronger binding
Quantity: mean fluorescence intensity
Sequence: GGTTGGTGTGGTTGG
2'F-ANA at 1 2 3 4 5 7 8 11 12 15: 96.8 a.u.
2'F-ANA at 2 5 6 9 12 14 15: 46.2 a.u.
2'F-ANA at 2 4 5 7 9 11 14: 43.2 a.u.
2'F-ANA at 6 7 9 11 13 15: 287 a.u.
2'F-ANA at 2 4 5 6 9 12 13: 83 a.u.
2'F-ANA at 3 4 5 6 7 9 10 12 15: 59.9 a.u.
2'F-ANA at 1 2 7 10 12 14: 45.2 a.u.
2'F-ANA at 1 5 6 8 9 11 14: 57 a.u.
2'F-ANA at 1 3 6 11 12 14 15: 91.9 a.u.
2'F-ANA at 4 6 8 9 11 14 15: 72.3 a.u.
2'F-ANA at 2 4 5 6 11 12 13 14: 47.1 a.u.
2'F-ANA at 3 4 5 7 9 11 13: 61.6 a.u.
2'F-ANA at 2 4 9 11 13: 177 a.u.

Study 2
Target: Interferon regulatory factor 7, full length, phosphomimetic (IRF7, Homo sapiens, UniProt Q92985, residues 1-503, S471D/S472D/S475D/S476D/S477D/S483D/S484D/S487D)
UniProt Q92985, sequence (whole entry, unmodified, looked up): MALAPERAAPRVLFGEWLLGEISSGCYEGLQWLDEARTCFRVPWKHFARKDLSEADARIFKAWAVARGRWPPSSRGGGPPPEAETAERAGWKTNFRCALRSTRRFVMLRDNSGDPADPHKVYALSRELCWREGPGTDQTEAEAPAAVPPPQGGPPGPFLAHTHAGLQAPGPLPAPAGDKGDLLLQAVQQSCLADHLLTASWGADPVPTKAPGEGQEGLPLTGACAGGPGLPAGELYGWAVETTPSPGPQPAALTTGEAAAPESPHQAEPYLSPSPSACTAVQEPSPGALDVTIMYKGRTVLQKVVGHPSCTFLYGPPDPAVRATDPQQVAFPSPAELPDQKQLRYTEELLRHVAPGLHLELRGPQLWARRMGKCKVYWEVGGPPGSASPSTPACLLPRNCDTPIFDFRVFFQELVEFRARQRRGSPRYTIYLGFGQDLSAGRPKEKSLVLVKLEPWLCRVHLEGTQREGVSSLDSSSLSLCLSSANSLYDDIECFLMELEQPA
Method: protein-binding microarray
Form: double-stranded DNA, one strand shown
Matrix: in vitro
Concentration: 2200 nM top
Notes: 60-bp whole probe
Together with: salmon DNA 0.4 mg/ml
Baseline: random background probes
Direction: higher = stronger binding
Quantity: fitted relative affinity
Shared flanks, not repeated: GCCTAGCAC … GTCTTGATTCGCTTGACGCTGCTG
AAATTCTGATATAATTCAAAGTGCTAG: -0.739 z-score
GACGATATCGGACTGGGGACGTGCTAG: -0.184 z-score
GAACTTCTGCATTACAGCTAGTGCTAG: 0.672 z-score
CTTTCACCTCTCGGCCTGATGTGCTAG: 2.39 z-score
TCACATATTTATCTGCAACTGTGCTAG: 1.07 z-score
TTAGGTCTCCTTCTCCTTTCGTGCTAG: 1.73 z-score
GACGGTCTCGTACTGCTGACGTGCTAG: 0.271 z-score
TTAGATATCAGTCTCGGTTAGTGCTAG: 0.835 z-score
TTAGGCATCCTTATCCTTTAGTGCTAG: 0.11 z-score
TTAGGATTCCTTCTCCTTTAGTGCTAG: 1.18 z-score
TTAGATATCGGGAATCGATTAGTGCTA: -0.332 z-score
TCAGGTATAGCACTAAGACTGTGCTAG: -0.35 z-score
CACGGACTGGGGACTGGGGACGTGCTA: -0.542 z-score

Study 3
Target: Ras GTPase-activating protein-binding protein 1, RRM domain (G3BP1, Homo sapiens, UniProt Q13283)
UniProt Q13283, sequence (whole entry, looked up): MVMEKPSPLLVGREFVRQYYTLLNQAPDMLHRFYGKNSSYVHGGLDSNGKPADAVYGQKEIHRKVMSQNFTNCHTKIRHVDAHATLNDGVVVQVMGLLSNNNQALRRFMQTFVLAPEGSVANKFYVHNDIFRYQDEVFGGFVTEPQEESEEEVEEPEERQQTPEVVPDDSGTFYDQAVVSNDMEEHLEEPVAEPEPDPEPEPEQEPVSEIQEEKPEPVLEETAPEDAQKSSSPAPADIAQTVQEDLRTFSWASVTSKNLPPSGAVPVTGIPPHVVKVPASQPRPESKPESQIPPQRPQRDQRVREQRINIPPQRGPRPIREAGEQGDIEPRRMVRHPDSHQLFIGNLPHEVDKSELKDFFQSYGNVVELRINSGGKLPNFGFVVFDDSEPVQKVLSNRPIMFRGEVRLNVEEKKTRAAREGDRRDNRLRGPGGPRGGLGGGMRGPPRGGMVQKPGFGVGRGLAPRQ
Method: RNA Bind-n-Seq
Form: RNA
Matrix: in vitro
Concentration: 1 µM
Notes: whole 134-nt RNA, ends assumed
Together with: 150 mM KCl
Baseline: input library
Direction: higher = stronger binding
Quantity: log2 enrichment
Shared flanks, not repeated: GGGAGUUCUACAGUCCGACGAUC … UGGAAUUCUCGGGUGUCAAGG
AAGUCCUGUGCUACACAUCGUAUGUACCGAAUCGGUUUUUUUGGAAAAAGGUUUGGAAAGUAUUAUGUUACGCCGUUCGGAUCUGCACUU: -0.635
CAAGUCCUGUGCUACACAUCGUAUGUACCGAAUCGGGAAAGGGUUUGGGUUUGGGAAAGUAUUAUGUUACGCCGUUCGGAUCUGCACUUC: 0.774
GCAGGAAGUAAAAACAAAUGGAAAUGCUUCGGAUAGAGGCAGGGGUGGGGGUUGCUAAGGAAAGGGUGGGAUGGGAGUGGGUAAAGAGUU: 1.22
CACAGACAACACGCACCCACACAGACAUAGAGGGAAGGGGUUGGGAUGGGGACAGGGUGCACAGCAGGGCGGGGUAGGACCCCAGCCCCU: 0.0135
UGGGAGGUGGAUUUUGUUUAUUUUUUUAGCUCAUUUCCAGGUGUGGGAAUUUUUUUUUAAUAUGUGUCAUGAAUAAAGUUGUUUUUGAAA: 2.19
UGGCCCUUCCCCUGGAGCCAUGCUGGGCCCUAGCCCGGGUCCCUCGCCGGGCUCCGCCCACAGCAUGAUGGGGCCCAGCCCAGGGCCGCC: -0.894
CCUGUGCUACACAUCGUAUGUACCGAAUCGGGGAAAAAAAGGGGUUUUUUUGGGGAGGGGAAAGUAUUAUGUUACGCCGUUCGGAUCUGC: 0.581
CACAGACAACACGCACCCACACAGACACAGAGGGAAGGGGUUGGGAUGGGGACAGGGUGCAUAGCAGGGCGGGGUAGGACCCCAGCCCCU: 0.115
ACCAUGCAGGUGGGCAUCUUUGGGAAGUGGGGCAAGGGGGGGAUAGGGAGGGGGGUAACACUUUGGGAACAGGUGGUCCCAGGUCGUAAA: -0.532

Single results of other studies
PhoQ, residues 284 288 289 292 302 303 SSTLLI
fold induction (PhoP, residues 12 14 15 18 19 VQALL (Escherichia coli, UniProt P23836); Sort-seq, item: YFP reporter; E. coli; PhoQ-PhoP variant library, together with: 10 µM Mg2+; baseline: high Mg2+ state, higher = stronger signaling): 5.47

A few entries again (study 1):
2'F-ANA at 1 5 6 8 9 11 14: 57 a.u.
2'F-ANA at 6 7 9 11 13 15: 287 a.u.
2'F-ANA at 3 4 5 7 9 11 13: 61.6 a.u.
2'F-ANA at 1 3 6 11 12 14 15: 91.9 a.u.
